Assay results collected from several papers.
± gives the spread as reported.

Compound | cell line | test | setting | how to read | quantity | value
COc1cc2c(C=C3C(=O)Nc4ccccc43)c[nH]c2cc1C | NCI-60 panel mean | – | 48 h | – | TGI | 6.46 µM
CC(=O)N[C@H](C(=O)N[C@H](C(=O)N[C@@H](CCCNC(=N)N)C(=O)N1Cc2ccccc2C[C@H]1C(=O)N[C@@H](Cc1ccccc1)C(N)=O)C1CCCCC1)C(C)C | MBP-specific BC-3 T cells | Bio-Plex multiplex, refers to: FGF | 200 µg/mL, 24 h, together with: MBP87-99 antigen | – | cytokine level | 2.1 ± 0.6 pg/mL
COc1cc(CNC(=O)C[C@H](C)CCC=C(C)C)ccc1OCc1cn(-c2ccccc2Cl)nn1 | K562 leukaemia cells | SRB | 10 µM, 48 h | – | growth percent | 44.6%
Cc1ccc(C(C)C)cc1.Cc1ncc(CO)c(C=NNC2=Nc3ccccc3-c3[nH]c4ccc(Br)cc4c3C2)c1O.[Cl-].[Cl][Ru+] | SW480 | annexin V/PI flow cytometry | 20 µM, early plus late apoptosis | – | apoptotic cells | 61%
CCCCCCCCCCCCCCCC(=O)OCC(CSC[C@H](N)C(=O)N[C@@H](CO)C(=O)N[C@@H](CCCCN)C(=O)N[C@@H](CCCCN)C(=O)N[C@@H](CCCCN)C(=O)N[C@@H](CCCCN)C(=O)NCCCCCC(=O)N[C@@H](CCCCN)C(=O)N[C@@H](CC(C)C)C(=O)N[C@H](C(=O)N[C@@H](Cc1ccccc1)C(=O)N[C@@H](Cc1ccccc1)C(=O)N[C@@H](Cc1ccc2ccccc2c1)C(=O)O)C(C)C)OC(=O)CCCCCCCCCCCCCCC (some centres unmarked) | BV-2 | RNA-seq, refers to: phagocytosis genes | 1.0 µM | – | gene expression | increased
CC(C)[C@@H]1NC(=O)[C@@H](Cc2ccccc2)NC(=O)[C@H](CC(=O)O)NC(=O)CNC(=O)[C@H](CCCNC(=N)N)NC1=O | B16/F1 | – | 0.1 µM, 3 h, 37 °C, read 5 days later | relative to: untreated | survival decrease | 6%
C[n+]1c(/C=C/c2ccc(N(c3ccccc3)c3ccccc3)cc2)cc(/C=C2\Sc3ccccc3N2CCCN2CCCC2)c2ccccc21 | CA46 | – | 36 h | relative to: CA46 over Raji | IC50 ratio | ~3 fold
COc1cc(CNC(=O)C[C@H](C)CCC=C(C)C)ccc1O | UACC-62 melanoma cells | SRB | 10 µM, 48 h | – | growth percent | 81.2%
COc1ccc(S(=O)(=O)N(CC(=O)O)c2c(C)c(C)c(N(CC(=O)O)S(=O)(=O)c3cccnc3)c(C)c2C)cc1 | H9c2 | ELISA | 10 µM, together with: LPS 1 µg/mL | – | TNF-α secretion | decreased
COC(=O)[C@H]1[C@H]2C[C@H]3O[C@@]4(CCN3C[C@H]2C[C@@H](OC(=O)c2cc(OC)c(OC)c(OC)c2)[C@@H]1OC)C(=O)Nc1cc(OC)c(-c2ccc(F)cc2)cc14 | RS4;11 | annexin V/PI flow cytometry | 5 µM, 72 h | – | late apoptotic cells | 48.7 ± 35.2%
CCCCCCCCCCCCCC[C@@H](O)[C@@H](O)[C@H](CO[C@H]1O[C@H](CO)[C@H](O)[C@H](O)[C@H]1O)NC(=O)CCCCCCCCCCc1ccc(OC)cc1 | human Vα24+ NKT cells | – | 10 ng/mL, 24 h, HeLa-CD1d co-culture, unit not given | relative to: α-GalCer | IFN-γ secretion | 1.91 ± 0.19
Cc1ccc(/C=C2\CCCC3C2=NN(C(=O)c2ccncc2)C3c2ccc(C)cc2)cc1 (centres unmarked) | human erythrocytes | HRBC membrane stabilization | concentration not given | – | membrane protection | 76.5%
C=C(CC)C(=O)c1ccc(OCC(=O)NCCNC(=O)COc2ccc(C(=O)C(=C)CC)c(Cl)c2Cl)c(Cl)c1Cl | A549/DDP | cell growth, CCK-8 | 72 h | – | IC10 | ~0.5 µM
CCn1c2ccccc2c2cc(C(O)c3cccc4ncccc34)ccc21 (centres unmarked) | T98G | BrdU incorporation | concentration not given, 72 h | – | S-phase cells | inactive
COc1cc(CNC(=O)C[C@H](C)CCC=C(C)C)ccc1OCc1cn(-c2ccc(Cl)c(Cl)c2)nn1 | K562 leukaemia cells | SRB | 10 µM, 48 h | – | growth percent | 51.9%
CC(=O)OC[C@H]1O[C@@H](Sc2sc(C(=O)c3ccc(Br)cc3)c(N)c2-c2nc3ccccc3s2)[C@H](OC(C)=O)[C@@H](OC(C)=O)[C@@H]1OC(C)=O | NCI-H226 | SRB | 10 µM, 48 h | relative to: untreated | growth | 28.1%
COc1cc2c(OC3OCC(OC)C(OC)C3OC(=O)c3ccc(Br)cc3)c3c(c(-c4ccc5c(c4)OCO5)c2cc1OC)C(=O)OC3 (centres unmarked) | FaDu | western blot, refers to: N-cadherin | concentration not given, 36 h | relative to: DMSO | protein level | decreased
Cc1ccc(NC(=O)c2c(C)oc3ccc(O)c(CN4CCCCCC4)c23)cc1 | CA46 | exon-specific qPCR | 10 µM, up to 48 h | – | MYC exon 2 transcription | no effect
COc1c2c(cc3c1[C@@H]1Oc4c(ccc(O)c4CC=C(C)C)[C@@H]1CO3)OC(C)(C)C=C2 | 3T3-L1 adipocytes | activator | up to 100 µM | – | glucose consumption | inactive
Cc1nc(C)c(C=[N+]([O-])C(C)(C)C)nc1C | N2a | luciferase, refers to: PGC-1α promoter | 300 µM | relative to: basal | reporter gene | 142 ± 14.7%
COc1cc(CNC(=O)C[C@H](C)CCC=C(C)C)ccc1OCc1cn(-c2ccc([N+](=O)[O-])cc2)nn1 | K562 leukaemia cells | SRB | 10 µM, 48 h | – | growth percent | 44.9%
NS(=O)(=O)NCC(F)(F)c1ccccc1F | rat hippocampal neurons | neuroprotection, CFDA viability | 4 h, together with: hydrogen peroxide 10 µM | – | EC50 | 0.003 µM
Cc1cc([C@H](C(=O)N2C[C@H](O)C[C@H]2C(=O)N[C@@H](CC(=O)N2CCC(N3CCC(C#Cc4ccc(C(=O)N[C@H]5C(C)(C)[C@H](Oc6ccc(C#N)c(Cl)c6)C5(C)C)cc4)CC3)CC2)c2ccc(-c3scnc3C)cc2)C(C)C)on1 | MDA-MB-453 | partial restoration of decrease, refers to: CDKN1A (p21) | 24 h, together with: R1881 | – | effective concentration | ≥ 100 nM
CCC12CCc3c(c4ccccc4n3C)CCN(CC3OC31)C2 (centres unmarked) | BV-2 | NO production | 12 µM, 1 h, 24 h stimulation, together with: LPS 800 ng/mL | relative to: LPS control | inhibition | 64.6 ± 0.1%

Compound | cell line | test | setting | how to read | quantity | value
C[C@H](CC(=O)C[C@@H](C)[C@H]1C[C@H](O)[C@@]2(C)C3=C(C(=O)C[C@]12C)[C@@]1(C)CCC(=O)C(C)(C)[C@@H]1C[C@@H]3O)C(=O)O | 3T3-L1 adipocytes | – | 50 µg/mL | – | glucose consumption | 12 ± 0.37 mmol/L
COc1cc(CNC(=O)C[C@H](C)CCC=C(C)C)ccc1OCc1cn(-c2ccccc2F)nn1 | K562 leukaemia cells | SRB | 10 µM, 48 h | – | growth percent | 81.6%
COc1ccc(NC(=O)COc2ccc(/C=C/C(C)=N/O)cc2OC)cc1 | SH-SY5Y | flow cytometry | 40 µM, together with: amyloid beta 10 µM | – | TNF-α expressing cells | 8.43%
CCC(=O)N(C)c1ccc(Cl)c(Cl)c1 | DBA/1 mouse splenocyte T cells | – | 50 to 200 µM, together with: anti-CD3/CD28 | – | IL-2 secretion | decreased
N=C(N)NCCC[C@H](N)C(=O)NCC(=O)N[C@@H](CC(=O)O)C(=O)N[C@@H](CO)C(=O)O | BHK | cell spreading on fibronectin | up to 1.0 mg/mL, 60 min, together with: fibronectin 2 µg/mL coat | – | inhibition | inhibited
Cc1ccc(=O)n(-c2ccc(NC(=O)[C@H](C)N(C)C)cc2)c1 | NIH3T3 | cell growth or viability, CCK-8 | 1 mM | – | inhibition | 60.9%
COc1cc(CNC(=O)C[C@H](C)CCC=C(C)C)ccc1OCc1cn(-c2ccccc2)nn1 | NCI-H460 | SRB | 10 µM, 48 h | – | growth percent | 97%
CCC(=C(c1ccc(Cl)cc1)c1ccc(OCCCN(C)C)cc1)c1ccc(OC)cc1 | NCI-H226 | cell growth or viability, SRB | – | – | GI50 | 7.7 µM
COc1ccc(C2=Nn3c(NN=C4C(=O)N(Cc5ccccc5)c5ccc(Cl)cc54)nnc3SC2)cc1 | NCI-60 cell line panel | – | 10 µM, growth inhibition above 10% | – | number of sensitive cell lines | 44
O=C(O)CCC(NP(=O)(O)OCCC[C@@H](NC(=O)CC[C@H](NC(=O)CCCCCNC(=O)c1ccc([18F])cc1)C(=O)O)C(=O)O)C(=O)O (some centres unmarked) | LNCaP, CWR22Rv1 | – | concentration not given, 4 h | relative to: LNCaP over CWR22Rv1 | uptake ratio | 6.6 fold
COc1ccc([C@@H]2CC(=O)c3c(O)cc(O[C@@H]4O[C@H](CO[C@@H]5O[C@@H](C)[C@H](O)[C@@H](O)[C@H]5O)[C@@H](O)[C@H](O)[C@H]4O)cc3O2)cc1O | A549 | cell growth or viability, MTS | 100 µg/mL, 72 h | – | viability | 47.1%
O=Cc1c(O)ccc2ccccc12 | HUVEC | RNA sequencing, refers to: HGFAC | 75 µM, 24 h | relative to: DMSO | log2 fold change | 2.7
CC(C)[C@H](NC(=O)[C@@H]1CCCN1C(=O)[C@H](CCCNC(=N)N)NC(=O)[C@H](CS)NC(=O)[C@H](Cc1c[nH]c2ccccc12)NC(=O)[C@H](CCCNC(=N)N)NC(=O)[C@@H](Cc1ccccc1)NC(=O)[C@H](Cc1c[nH]cn1)NC(=O)[C@H](CCC(=O)O)NC(=O)[C@H](CS)NC(=O)[C@H](CS)NC(=O)[C@H](CCCCN)NC(=O)[C@@H]1CC(=O)N[C@@H](CCCNC(=N)N)C(=O)NCC(=O)N[C@@H](CC(=O)O)C(=O)N[C@H](Cc2ccc(O)cc2)C(=O)N1)C(N)=O | B16/F1 | – | 0.1 µM, 3 h, 37 °C | relative to: untreated | clonogenic survival decrease | 65%
C[C@H](C(=O)Nc1ccc(Cn2cc(C(F)(F)F)ccc2=O)cc1)N(C)C | NIH3T3 | cell growth or viability, CCK-8 | 500 µM | – | inhibition | 37.5%
O=C(OCc1cccc(O)c1O)c1ccc(O)c(CO)c1 | p47phox knockout mouse CMEC | lucigenin chemiluminescence | 5 µM, 24 h | – | superoxide production | no effect
NCCCCCO[C@H]1O[C@H](COS(=O)(=O)O)[C@@H](O[C@@H]2O[C@@H](C(=O)O)[C@@H](O[C@H]3O[C@H](COS(=O)(=O)O)[C@@H](O[C@@H]4O[C@@H](C(=O)O)[C@@H](O[C@H]5O[C@H](COS(=O)(=O)O)[C@@H](O[C@@H]6O[C@@H](C(=O)O)[C@@H](O[C@H]7O[C@H](COS(=O)(=O)O)[C@@H](O[C@@H]8O[C@@H](C(=O)O)[C@@H](O)[C@H](O)[C@H]8OS(=O)(=O)O)[C@H](O)[C@H]7NS(=O)(=O)O)[C@H](O)[C@H]6OS(=O)(=O)O)[C@H](O)[C@H]5NS(=O)(=O)O)[C@H](O)[C@H]4OS(=O)(=O)O)[C@H](O)[C@H]3NS(=O)(=O)O)[C@H](O)[C@H]2OS(=O)(=O)O)[C@H](O)[C@H]1NS(=O)(=O)O | human corneal epithelial cells | cell migration, scratch | concentration not given, 24 h | – | wound closure | 50%
CC/C=C\C/C=C\C/C=C\C/C=C\C/C=C\C/C=C\CCC(=O)Nc1ccn(C2OC(CO)C(O)C2(F)F)c(=O)n1 (centres unmarked) | RPMI-8226 | NCI60 screen | – | – | TGI | 26.9 µM
C1=[N+]2CCCC[N+]3=Cc4ccc5[n]4[Au-]23[n]2c1ccc2-c1nc2ccccc2nc1-5.F[P-](F)(F)(F)(F)F | renal cancer cell lines | – | NCI60 panel mean | – | GI50 | 14 µM
COc1ccc([C@@H]2CC(=O)c3c(O)cc(O[C@@H]4O[C@H](CO[C@@H]5O[C@@H](C)[C@H](O)[C@@H](O)[C@H]5O)[C@@H](O[C@H]5O[C@H](CO)[C@@H](O)[C@H](O)[C@H]5O)[C@H](O)[C@H]4O)cc3O2)cc1O | A549 | Matrigel Transwell invasion | 50 µg/mL, 48 h | – | invasion | 32.5 ± 4.76%
CC(C)=CCc1cc2c(cc1O)OC[C@H]1c3ccc(O)c(CC=C(C)C)c3O[C@@H]21 | 3T3-L1 adipocytes | activator | up to 100 µM | – | glucose consumption | inactive
CC(=O)OC[C@H]1O[C@@H](Sc2sc(C(=O)c3ccc(C)cc3)c(N)c2-c2nc3ccccc3s2)[C@H](OC(C)=O)[C@@H](OC(C)=O)[C@H]1OC(C)=O | RPMI-8226 | SRB | 10 µM, 48 h | – | growth | 61.2%
COc1cc(CNC(=O)C[C@H](C)CCC=C(C)C)ccc1OCc1cn(-c2cccc([N+](=O)[O-])c2)nn1 | UACC-62 melanoma cells | SRB | 10 µM, 48 h | – | growth percent | 65.9%
COc1ccc2c(c1)/C(=N\Nc1nnc3n1N=C(c1ccccc1)CS3)C(=O)N2 | SF-295 | cell growth or viability, SRB | 10 µM | – | inhibition | 12%

For quick reference, copied from above:
Compound | cell line | test | setting | how to read | quantity | value
CCC(=C(c1ccc(Cl)cc1)c1ccc(OCCCN(C)C)cc1)c1ccc(OC)cc1 | NCI-H226 | cell growth or viability, SRB | – | – | GI50 | 7.7 µM
COc1ccc(C2=Nn3c(NN=C4C(=O)N(Cc5ccccc5)c5ccc(Cl)cc54)nnc3SC2)cc1 | NCI-60 cell line panel | – | 10 µM, growth inhibition above 10% | – | number of sensitive cell lines | 44
O=C(O)CCC(NP(=O)(O)OCCC[C@@H](NC(=O)CC[C@H](NC(=O)CCCCCNC(=O)c1ccc([18F])cc1)C(=O)O)C(=O)O)C(=O)O (some centres unmarked) | LNCaP, CWR22Rv1 | – | concentration not given, 4 h | relative to: LNCaP over CWR22Rv1 | uptake ratio | 6.6 fold
